Assay results of several laboratories.
A part holds a random share of what one study measured.

Study 1 — method: RNA Bind-n-Seq; molecule type: RNA; medium: in vitro; concentration: 365 nM; relative to: no-protein control; reading: higher = stronger binding
Target: RNA binding protein fox-1 homolog 2, RRM domain, GST-SBP tag (RBFOX2, Homo sapiens, UniProt O43251-10, residues 100-194)
Notes: natural RNA segment, single round, ends assumed
All sequences stand within: GGGAGUUCUACAGUCCGACGAUC … UGGAAUUCUCGGGUGCCAA
Target sequence (chain): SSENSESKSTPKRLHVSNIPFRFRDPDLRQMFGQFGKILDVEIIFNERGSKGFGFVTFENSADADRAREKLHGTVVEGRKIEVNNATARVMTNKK
Oligonucleotide | RBNS enrichment (R)
ACUAGGAAUCCUCCAACCAGGCUCCUGUGAUAGAGUUCUUUUAAGCCCAAGAUUUUUUAUUUGAGGGUUUUUUGUUUUUUAAAAAAAAAUUGAACAAAGACUACUAAUGA | 0.454
AGUAAUAUAAACUGUAUUAAUAAAAUCCAUUUACUGUGUAAUACACGAGUUUAAAAAUUAAGAGCGAUUAGCUGUUCACUUUGGUAACAGGUAGUUAAGUGUCACACAAG | 0.339
UCGCCUGCGUUCUUUCUCCUUCUGGUGCUACAGCUCUGAGGGCCUUCACCUUUCUGUCUGAAAUACAACUGUGGCUUUUGCAGUAGAAGACUAUGUUGGUGGUUUCAUUG | 0.284
GUACUUAAGGAAGGUAGUUGCAAAUACCAACUAUGGCCAUGCGAUCAGGCGCAGAAAUGAGGAUUACUGUUUCUUCCAGAUUUUGUUAAGAAUGUGUUCAGAUAUUUGUG | 0.551
CUAGCAUGUGAACCUGGUCCUAGUUGGAAACUCACCCAGCCUACCUUAGUACUAGUGUUUCCUACUUGAUCUCCCAUGCCUGUGGAGACUAAGCCCCCACUACCCCAGAG | 4.33
CAGGUCUGGGUAUUGCUCCUGCCCAGACCCUGACAUCCCUUUCCACUGUGUGUGUGACCAUGCUGGGGGAGGGGGACUCUGCUUGGAAUUAAAAGGUUGCAUUGGGUCCC | 0.542
AUAAACCUUAAGUGAAAUGAAAGAAAAAGAUCUAUUGCAGAUAUCUGAUGGAUGUAGUUUUCUUUUUUUAAAUUAGAAAUGCCACUUCUAUUGUAUUGUCUCACACAUGC | 0.704
UUCUUCUUAACUUUACUUCUCUUUUUGUCCCCCCCCCAUCUUACAGAAGUUGAGGCCAAGGGAGAAUGGUAGGCACAGAAGAAACAUGGCAAACUGCUCUGUGCUUUCAA | 0.999
ACAAACAUCAAGCAAUUCAGGUACUAGGAUAACAUGUCAGUUUUGCUGGGUUGGAGGUGGGUAUCAAGUGAUUAUUUCCUAUCAAGACAUCUUUAAAUUAUAGAGCUCAG | 0.454
CACUAAGGGCUUCCACCACUGCUUCCAUGCAACCUCACGCCUGGCUCCUGCUUUGGAUCUAACAGCUGAGUCCAGACAGGCUCCCCACAGGUCACCCUUGCACGGGUUUG | 1
GUUGACUUACUUAUAGCUAGAUGUCUAUGUGAGAAAGUAUAAUAUAUAUAUAUACACAUAUAUAUGACAUGUAAGAGUCACUUUUAUUUAUCUGUCUUUGUUCACUUAUG | 0.759
AACAUCACGAUCAAAGCAGCAGGUGCUGUGGUCUCUCAAAAUUGAUUUUUAUUUGACUCUGUGGCUCUAAGACUGCCUUGAACCGCCUGAGGCCUAUGCAUCUGAACAAG | 2.02

Study 2 — method: protein binding microarray; molecule type: double-stranded DNA, one strand shown; medium: in vitro; concentration: not given; relative to: not given; reading: higher = stronger binding
Target: Histone acetyltransferase KAT6A, both winged helices, GST fusion (KAT6A, Homo sapiens, UniProt Q92794, residues 1-181)
Notes: 8-mer, flanks averaged, mean of 2 arrays, mostly near background
Construct (chain): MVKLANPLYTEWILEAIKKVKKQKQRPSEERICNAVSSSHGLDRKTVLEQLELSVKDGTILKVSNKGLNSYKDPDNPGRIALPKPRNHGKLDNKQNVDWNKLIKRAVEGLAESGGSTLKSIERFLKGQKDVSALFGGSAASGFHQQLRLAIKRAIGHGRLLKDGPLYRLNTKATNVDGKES
Oligonucleotide | E-score
GCTAACCA | -0.0786
CCAGGTTC | -0.131
CCCCAGGA | -0.228
CAAGTTAG | -0.0694
ATCTGAGC | 0.0229
CATGGTAC | -0.0645
ACTTTGAA | -0.095
ACAACGCT | 0.0362
AATTCGAG | -0.144
CATTTATC | -0.0988
CCCAGTTA | -0.13
AGACAGCC | -0.06
AATGACCA | -0.135
AGGCTTAG | -0.113
ATGAATTC | 0.0377
GTTATTGA | 0.0049
AACTGGAA | -0.216
GGAAATTA | -0.051
CCTGCCGA | -0.0398
ATACTTAC | -0.0464
AAGACAAA | 0.0151
ACCGGCGA | 0.181
CCTAAAAA | -0.129
CATATCCG | 0.0889
GGCTCGGA | 0.119

Study 3 — method: universal PBM; molecule type: double-stranded DNA, one strand shown; medium: in vitro; concentration: not given; reading: higher = stronger binding
Target: Sal-like protein 4, full length isoform B (SALL4, Homo sapiens, UniProt Q9UJQ4-2, residues 1-616)
Notes: 8-mer, flanks averaged, mean of replicates
Target sequence (chain): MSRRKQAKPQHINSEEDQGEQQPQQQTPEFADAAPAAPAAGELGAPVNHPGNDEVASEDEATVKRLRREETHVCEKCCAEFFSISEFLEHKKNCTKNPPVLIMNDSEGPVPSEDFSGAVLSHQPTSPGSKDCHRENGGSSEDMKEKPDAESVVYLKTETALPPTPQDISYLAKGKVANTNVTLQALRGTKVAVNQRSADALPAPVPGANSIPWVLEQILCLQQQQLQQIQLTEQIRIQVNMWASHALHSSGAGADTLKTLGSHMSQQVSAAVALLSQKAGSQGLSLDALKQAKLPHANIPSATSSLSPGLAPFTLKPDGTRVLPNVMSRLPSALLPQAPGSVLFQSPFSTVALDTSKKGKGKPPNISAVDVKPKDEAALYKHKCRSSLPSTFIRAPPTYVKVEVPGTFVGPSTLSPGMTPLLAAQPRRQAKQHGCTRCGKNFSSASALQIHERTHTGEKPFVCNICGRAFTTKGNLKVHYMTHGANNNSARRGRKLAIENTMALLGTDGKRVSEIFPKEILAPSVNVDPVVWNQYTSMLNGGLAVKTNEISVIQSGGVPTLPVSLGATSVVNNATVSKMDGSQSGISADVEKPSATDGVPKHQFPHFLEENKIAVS
Oligonucleotide | E-score
ACTCCGTC | -0.0886
TATTGCCA | 0.202
GATGCGCA | -0.0852
ACGCAATG | 0.0196
GGCATGGA | -0.0411
CCCTTGAG | -0.204
AGGCGCCT | -0.219
AAGATTCT | -0.0132
AGGAGTGG | -0.087
GCATTTTA | 0.253
AATTTTAG | 0.273
ATGGCCTA | 0.0173
CGCTCCAA | -0.16
ATGCGACA | 0.0372
CAATACCA | 0.214
GAACGGGC | -0.232
ATGCCACC | -0.218
CATGCTCA | 0.0213
GTACTCAC | 0.0102
GGTGGCCA | -0.174
ACCCTAAG | -0.176
ATTGATAC | 0.188
ATAATCGA | 0.251

Study 4 — method: protein-binding microarray; molecule type: double-stranded DNA, one strand shown; medium: in vitro; concentration: not given; reading: higher = stronger binding
Target: Protein C-ets-1 (ETS1, Homo sapiens, UniProt P14921, residues 1-441, K379A, full length assumed)
Notes: k-mer, scored over probes, only values ≥0.25
Construct (chain): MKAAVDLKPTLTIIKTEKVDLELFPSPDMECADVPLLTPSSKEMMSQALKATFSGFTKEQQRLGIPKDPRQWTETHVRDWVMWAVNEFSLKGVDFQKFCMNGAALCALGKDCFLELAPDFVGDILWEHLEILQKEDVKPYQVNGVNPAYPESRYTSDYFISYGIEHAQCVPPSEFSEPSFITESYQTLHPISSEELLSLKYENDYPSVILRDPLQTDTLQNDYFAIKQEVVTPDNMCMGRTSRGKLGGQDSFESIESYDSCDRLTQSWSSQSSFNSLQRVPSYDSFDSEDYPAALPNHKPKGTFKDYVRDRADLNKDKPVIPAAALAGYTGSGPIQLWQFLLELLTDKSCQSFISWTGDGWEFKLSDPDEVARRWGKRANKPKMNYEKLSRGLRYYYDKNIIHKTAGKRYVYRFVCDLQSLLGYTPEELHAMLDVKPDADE
Oligonucleotide | E-score
CCGGTACC | 0.466
GAACCGGA | 0.402
ACGGACCA | 0.253
CGTTCCCC | 0.322
CCAACCGG | 0.38
ATCCATAC | 0.253
GTCGGGGA | 0.266
ACACCGGA | 0.405
ACCGGTTA | 0.479
AAAGCGAC | 0.277
CCGGCAAA | 0.352
CAAATACA | 0.279
GTACGGTA | 0.257
ATGTACGC | 0.276
CGACACGC | 0.281
TACAACCA | 0.315

Study 5 — method: aptamer microarray, sandwich; molecule type: DNA with 2'F-ANA; medium: in vitro; concentration: 200 nM; together with: Cy3 exosite-II aptamer, 400 nM; reading: higher = stronger binding; oligonucleotide: GGTTGGTGTGGTTGG
Target: Prothrombin, mature alpha-thrombin (F2, Homo sapiens, UniProt P00734)
Notes: whole 15-mer aptamer, many near background
Modification | mean fluorescence intensity [a.u.]
2'F-ANA at 1 2 3 4 5 7 8 10 11 12 13 15 | 52.8
2'F-ANA at 3 7 10 12 13 15 | 546
2'F-ANA at 1 3 4 5 6 11 14 15 | 54.1
2'F-ANA at 1 2 3 5 6 7 9 11 12 13 14 | 45.3
2'F-ANA at 1 2 3 7 9 | 231
2'F-ANA at 1 2 4 5 7 11 12 15 | 79.5
2'F-ANA at 1 2 7 12 14 15 | 71.5
2'F-ANA at 3 5 7 8 9 10 11 12 13 15 | 67
2'F-ANA at 4 7 9 11 13 14 15 | 74.3
2'F-ANA at 1 2 3 4 6 | 158
2'F-ANA at 6 8 10 11 12 14 15 | 97.7
2'F-ANA at 3 4 5 9 13 14 | 49.6
2'F-ANA at 1 4 5 7 9 11 12 13 14 | 80.5
2'F-ANA at 1 3 4 7 10 11 12 14 15 | 53.1
2'F-ANA at 1 3 4 8 10 12 15 | 82.5
2'F-ANA at 2 6 7 9 10 11 12 14 | 82.4
2'F-ANA at 5 6 7 8 10 12 13 15 | 50
2'F-ANA at 2 3 5 6 7 8 9 11 13 14 | 63.9
2'F-ANA at 6 7 8 9 10 12 13 14 | 120

Repeated from above (study 2):
Oligonucleotide | E-score
CATTTATC | -0.0988
CCCAGTTA | -0.13
AGACAGCC | -0.06
AATGACCA | -0.135
AGGCTTAG | -0.113
ATGAATTC | 0.0377
GTTATTGA | 0.0049
AACTGGAA | -0.216
GGAAATTA | -0.051
CCTGCCGA | -0.0398
ATACTTAC | -0.0464
AAGACAAA | 0.0151
